Assay results pooled from the literature.
Parts stem from different laboratories: compare values within a part only.

Study 1 — method: Spec-seq; molecule type: double-stranded DNA, one strand shown; medium: in vitro; concentration: not given; setting: whole probe, mean of replicates; relative to: not given; direction: lower = stronger binding; constant ends, left off below: GAGTCGTCTCGTCAGCAC … CCGTAGAGCACTCAGGTC
Target: POU, POU domain (Salpingoeca helianthica)
Construct (chain): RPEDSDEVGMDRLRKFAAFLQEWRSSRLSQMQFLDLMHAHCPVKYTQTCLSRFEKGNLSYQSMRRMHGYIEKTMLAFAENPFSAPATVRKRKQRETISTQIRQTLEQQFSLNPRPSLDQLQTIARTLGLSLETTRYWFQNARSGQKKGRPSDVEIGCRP
Strand | relative binding energy [ln ratio]
AAAATAAT | 0.0272
CGGTTAAT | -0.298
AAGTTAAT | -0.14
ATGAAGAT | 1.47
ATGTTTAT | 0.115
ATCCCCAT | 1.41
CGTTTAAT | -0.407
ATCGGTAT | 1.17
ATGCCCAC | 1.28
ATGCTCCA | 1.34
AATATAAT | -0.0527
AAGATAAT | 0.156
ATGCGTCG | 1.57
TACCTAAT | 0.81
ATGCACGC | 1.28
ATGGGAAT | 1.44

Study 2 — method: RNA Bind-n-Seq; molecule type: RNA; medium: in vitro; concentration: not given; setting: RNA with constant flanks, ends assumed; relative to: input RNA pool; direction: higher = stronger binding
Target: RING finger protein unkempt homolog, zinc fingers 1-6, GST-SBP tag (UNK, Homo sapiens, UniProt Q9C0B0, residues 30-357)
Constant ends, left off below: GGGAGUUCUACAGUCCGACGAUC … CAACAGAGGAUUGAGCAUCA
Construct (chain): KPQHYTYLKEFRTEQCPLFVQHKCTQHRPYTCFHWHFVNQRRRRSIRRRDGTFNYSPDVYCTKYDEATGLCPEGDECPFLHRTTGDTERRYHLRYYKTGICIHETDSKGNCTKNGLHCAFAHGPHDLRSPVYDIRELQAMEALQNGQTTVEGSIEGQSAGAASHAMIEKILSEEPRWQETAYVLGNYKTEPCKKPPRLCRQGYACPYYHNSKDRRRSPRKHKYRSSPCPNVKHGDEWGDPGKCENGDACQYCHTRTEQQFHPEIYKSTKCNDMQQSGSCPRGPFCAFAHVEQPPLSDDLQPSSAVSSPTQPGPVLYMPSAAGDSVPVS
Strand | bound/input enrichment
AGAUACUUGCAAAAUAGAUCUCGAAUUCAGGUGUGGCUGUAUGAACAAGUGAAUAUGCGGACCGAAGGUUGUAUUAUUGGCUUUGAUGAGUACAUGAACCUCGUAUUAGAUGAUGCAGAA | 0.587 ratio
UUGCCACCGUCCGCCAAAAAGUCAGGCCAGAAACCUGUGCUUUCAGAUGUUCACGCAGAGCCCGACAGAAUCACACGGAAACCUGCUUCUGUUUCUCCUACAACACCUACAUCUCCUACG | 0.193 ratio
GUUAUUUUAAUAAUUCCUUUAAAUUUUAUCUGUUGCUGUUACCUCUUGAAAUAUGAUUUAUUCCGAUUGCUAAUCCCACUCAUUCAGGAAAUGCCAAGAGGUUUUCUGUGGGGGAAAUGG | 3.06 ratio
GAAAUGAGGGCAAGAGCAAUUAAGGCUCUCAUGAAAGCUGGUGAUAUAAAAAAGCCAGUGCCGUUUUCUGACUUGAAUAUUAUGUGUGUUUGAAUGAAGCCAUGUCAUAUAAUUUUGUAU | 0.22 ratio
UUCUACUUUGGCUCCCUAAAGCUGAAUUCAAUUCACAUCUCUCAGAGGUUCACCGCCGACAGCUUUGGAAACUACGCUUCCUGUGGACAAAUUGACUUCUCCUGAGGUGGAUCUUGGAAA | 0.079 ratio
CCAACUUAUGAGACUGGAUCUCUUUCCUUUGCAGGAGACGAGAGAAUAUGAAGUUUCCAUCCCGGUGGGAGCAGCCUGGGGAUGCACACGCAGUCCUGCAUCGCAGGCCAGCGGCAGGGC | 0.138 ratio
GCCAGGCCGUAUACUGGGUUCACAUAUCAGGCUGCAGGAAAGGCAGUAUGAUAUAAGGUAAGGGCACCGGAAAUGAAGCUGAAAUGGACACACACACACACACACACACUGAUAAACUUG | 0.489 ratio
UGGACUUUGAGUUUGCUGCAUGGCAGAUGCUCUACCUGUUUACCUCUCCUCAGAGGGUUUACCGAAACUUUCACUACCGGAAGCAAACAAAGGACCAGUGGGCCAGAGAUGACCCUGCCU | 0.108 ratio
CAUACCAGCUGAAGAGCGACAAGCCGCUGGCAGCCGCGGAUCUCACCGCCGCUCAGGGUUUUCCGAACUUCAGCCAUAAAAAUGGGCAGAAUUUUCCUUGAUCAUAUCGGUGGUACCCGU | 0.113 ratio
CGAGUAGUUGGCAAAGAGCAGGGCCAGAAUUUAGCAAGACAGUGGUGUAACUGUGCCUUUUCCGAAUCUUCUGCAAAGUCAAAGAUCAAUGUUAAUGAGAUAUUUUAUGACCUGGUCAGA | 0.694 ratio
GCACUUCUCAAAUACUGGCCAAAGACUCACAGUCCAAAAGAAGUAAUGUUCUUAAACGAAUCCGAAGAGAUUUUAGAUGUCAUUGAACCAUCAGAAUUUGUGAAGAUCAUGGAACCCCUC | 0.175 ratio

Study 3 — method: RNA Bind-n-Seq; molecule type: RNA; medium: in vitro; concentration: 365 nM; relative to: no-protein control; direction: higher = stronger binding
Target: RNA binding protein fox-1 homolog 2, RRM domain, GST-SBP tag (RBFOX2, Homo sapiens, UniProt O43251-10, residues 100-194)
Setting: natural RNA segment, single round, ends assumed
Constant ends, left off below: GGGAGUUCUACAGUCCGACGAUC … UGGAAUUCUCGGGUGCCAA
Construct (chain): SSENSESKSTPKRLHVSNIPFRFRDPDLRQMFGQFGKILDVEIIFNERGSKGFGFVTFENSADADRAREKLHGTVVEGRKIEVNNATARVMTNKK
Strand | RBNS enrichment (R)
CCCAUGAAGGAAAAAUUAGAGUUACUUUUCUCAUUUUGUGCAUUGAUAUAUUUUUACAAUCCUGCAAACUUCCUUGAGUCACUCACGACUCCCCCUGAGGUCACUUCCUG | 0.333
CCUGUCUGGGACACUUAAGUAACAUCUAAAGCAUUAUUGCUUUAGAAUGUUCAAAUAAAAUUUCCUGACCAAAUUGUUUUGUGGAAAUAGAUGUGUUUGCAAUUUGAAGA | 0.684
GCCGAGUUUGGGCCACUGCACUCUAGCCUGGCAACAGAGCAAGACUCCGUCUCAAAAAAAGGGCAAUAAAUGCCCUCUCUGAAUGUUUGAACUGCCAAGAAAAGGCAUGG | 1.11
GGGGAACACAGCCGCUCCCCUCUGCUCUGCACCCCACUCGUGGGGGAACACAGCCGCUCCCCUCUGCUCUGCACCCCACUCGUGGGGGAACACAGCCGCUCCCCUCUGCU | 0.286
GCCCUUUCCCACAUGUCUAGGCUCCAAUGUCUCCUGUAGGUCCACCUAACUGUGUGUUUUCAGGGACAAUGCCAUCCAUGUUUGUGCUGUAGACUUGCUGCUGCUGAAUC | 0.548
UGGGGCCUGUGGAGCCUGGGGUUGGAUAGGGCCAUGGCUGGUCCCCCACCAUACCUCCCCUCCACAUCACUGACACAGCUGAGCUUGUUAUCCAUCUCCCCAAACUUUCU | 0.238
GCAAGAUAGAUACUAUAUUAAACUGUACUGUUAUUUAAGAUGUAAUAAAGCAGUUUGACAUGAGGGACUCUGGUGUGAUGGUUAUUUGAGGGUCAUCUUCAGUGUGUGGG | 0.442
UCCCUAUGUUUUCCCCCUUUGAAAAUUUUUCUCAGUUAAAUUAAGCUACUGAUUUGAAUUUGUUUUUAUCUUGUCCUAAAGUCUUUGUUCUUGAAAUGCAAGGUAUUUGG | 0.468
UAAACAUACAUAAUACAAUGUAACUCCACUGUUCUCCUGAAUAUUUUUUGCUCUAAUCUCUCUGCCGAAAGUCAAAGUGAUGGGAGAAUUGGUAUACUGGUAUGACUACG | 0.281
AUUAUUCCUUAAGAAGUCUGUGUUAUAUUACCACGGAACACCCAAUAAAGCAAAAUGUGGUUGUUUCGAGGUGUGUCUGUAUUGAGACUCCCACAGUGUGUCGGCCUCUC | 0.368
AGAAUUCUUGUCUACUUUUUUCUUUCCCAAAAAGUGUUUUUUAAUUUCUCUACCAAAGAAAAAAUGAGCAGGUUUAGGUUUUUACAUGACUUAUAUACAUUAGAUAAAAG | 0.586
GUAGGGUUUCUAGGUAAUUUUUACAGAAUUGCUUGUUUGCUUCAACUGUCUCCUACCUCUGCUCUUGGAGGAGAUGGGGACAGGGCUGGAGUCAAAACACUUGUAAUUUU | 0.298

Study 4 — method: RNA Bind-n-Seq; molecule type: RNA; medium: in vitro; concentration: 1 µM; setting: whole 134-nt RNA, ends assumed; with: 150 mM KCl; relative to: input library; direction: higher = stronger binding
Target: Ras GTPase-activating protein-binding protein 1, RRM domain (G3BP1, Homo sapiens, UniProt Q13283)
Chain of UniProt Q13283 (whole entry, looked up): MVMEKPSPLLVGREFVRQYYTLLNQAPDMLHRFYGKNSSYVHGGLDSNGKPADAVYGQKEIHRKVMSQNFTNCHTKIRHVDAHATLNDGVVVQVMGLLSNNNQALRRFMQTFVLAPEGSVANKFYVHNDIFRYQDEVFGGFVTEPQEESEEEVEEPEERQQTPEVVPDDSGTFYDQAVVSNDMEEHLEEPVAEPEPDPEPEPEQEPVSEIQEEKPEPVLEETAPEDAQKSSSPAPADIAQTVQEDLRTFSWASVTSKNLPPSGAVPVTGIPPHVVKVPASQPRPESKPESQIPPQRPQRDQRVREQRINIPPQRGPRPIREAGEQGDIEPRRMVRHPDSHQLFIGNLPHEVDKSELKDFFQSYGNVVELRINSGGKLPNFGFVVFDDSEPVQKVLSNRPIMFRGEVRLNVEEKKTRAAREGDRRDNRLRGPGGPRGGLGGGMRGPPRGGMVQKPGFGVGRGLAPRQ
Constant ends, left off below: GGGAGUUCUACAGUCCGACGAUC … UGGAAUUCUCGGGUGUCAAGG
Strand | log2 enrichment
CACAGACAACACGCACCCACACAGACACAGAGGGAAGGGGUUGGGAUGGGGACAGGGUGCACAGCAGGGCGGGGUAGGACCGCAGCCCCU | -0.393
CAAGUCCUGUGCUACACAUCGUAUGUACCGAAUCGGGUUUGGGUUUGGGUUUGGGGAAAGUAUUAUGUUACGCCGUUCGGAUCUGCACUU | 0.824
ACCAUGCAGGUGGGCAUCUUUGGGAAGUGGGGCAAGGGGGGGAUAGGGAGGGGGGUAAGACUUUGGGAACAGGUGGUCCCAGGUCGUUUC | 1.13
AGUCCUGUGCUACACAUCGUAUGUACCGAAUCGGGAGGGUUUUUUUGGGAAAAAGGGAAAGUAUUAUGUUACGCCGUUCGGAUCUGCACU | 0.403
CACAGACAACACGCACCCACACAGACACAGAGGGGAGGGGUUGGGAUGGGGACAGGGUGCACAGCAGGGCGGGGUAGGACCCCAGCCCCU | 0.136
UCAAGUCCUGUGCUACACAUCGUAUGUACCGAAUCGGUUUUUGGUGGAAAAAGGAAAGUAUUAUGUUACGCCGUUCGGAUCUGCACUUCC | -0.076
GUCCUGUGCUACACAUCGUAUGUACCGAAUCGGGUUUUUUGGGUUUUUUGGUUUUUUGGAAAGUAUUAUGUUACGCCGUUCGGAUCUGCA | -0.19
UGGCCCUGGUGGCAUGCGGGGAGGAAGAGGUGGCCUCAAGGAUCGUGGUGGUCCCGGUGGAAUGUUCAGAGGUGGCCGUGGUGGAGACAG | 0.924
AGUCCUGUGCUACACAUCGUAUGUACCGAAUCAAACCCCCAAAUUUAAAUUUUUAAAAAAGUAUUAUGUUACGCCGUUCGGAUCUGCACU | -0.331
GCAGGAAGUAAAAACAAAUGGAAAUGCUUCGGAUAGUGGCAGGGGUGGGGGUUGCUAAGGAAAGGGUGGGAUGGGAGUGGGUAAAGAGUA | 1.39
AAGUCCUGUGCUACACAUCGUAUGUACCGAAUCGGGGAAAAGGGAAAAGGAAAAGGAAAGUAUUAUGUUACGCCGUUCGGAUCUGCACUU | -0.133
UCAAGUCCUGUGCUACACAUCGUAUGUACCGAAUCGGGGAAGGGGAAGGAAGGGGAAAGUAUUAUGUUACGCCGUUCGGAUCUGCACUUC | 0.35
CAAGUCCUGUGCUACACAUCGUAUGUACCGAAUCGGUUUGGAAAAAGGAAAAAGGAAAGUAUUAUGUUACGCCGUUCGGAUCUGCACUUC | -0.201
CCUCAAGUCCUGUGCUACACAUCGUAUGUACCGAAUCGGGAAGGAAGGGAAGGAAAGUAUUAUGUUACGCCGUUCGGAUCUGCACUUCCA | -0.271

Study 5 — method: universal PBM; molecule type: double-stranded DNA, one strand shown; medium: in vitro; concentration: not given; direction: higher = stronger binding
Target: Sal-like protein 4, full length isoform B (SALL4, Homo sapiens, UniProt Q9UJQ4-2, residues 1-616)
Setting: 8-mer, flanks averaged, mean of replicates
Strand | E-score
AACTCTCG | -0.155
ATAAACTC | 0.276
CAGCTAGA | -0.179
ATCACGTC | -0.00341
ACGGCGAC | -0.318
ACCACACC | -0.302
GCACCGGA | -0.334
CAGGCATA | 0.0154
TACTTATA | 0.305
ATTACAGC | 0.101
GTTGGACA | 0.0726
AGCAGGCA | -0.203
TGTCGAAA | 0.153
ATTTGTCC | 0.155
GAAAGTAC | 0.0596
CGCTTTGC | -0.00067
AGATCGAC | -0.121
AATGGACG | 0.143
ATTTTGAG | 0.197
AGCATCCT | -0.111
AACTTTAG | 0.0728
CTTCAATC | 0.00934

Excerpt of the above (study 3):
Strand | RBNS enrichment (R)
AGAAUUCUUGUCUACUUUUUUCUUUCCCAAAAAGUGUUUUUUAAUUUCUCUACCAAAGAAAAAAUGAGCAGGUUUAGGUUUUUACAUGACUUAUAUACAUUAGAUAAAAG | 0.586
CCCAUGAAGGAAAAAUUAGAGUUACUUUUCUCAUUUUGUGCAUUGAUAUAUUUUUACAAUCCUGCAAACUUCCUUGAGUCACUCACGACUCCCCCUGAGGUCACUUCCUG | 0.333
GGGGAACACAGCCGCUCCCCUCUGCUCUGCACCCCACUCGUGGGGGAACACAGCCGCUCCCCUCUGCUCUGCACCCCACUCGUGGGGGAACACAGCCGCUCCCCUCUGCU | 0.286
GCAAGAUAGAUACUAUAUUAAACUGUACUGUUAUUUAAGAUGUAAUAAAGCAGUUUGACAUGAGGGACUCUGGUGUGAUGGUUAUUUGAGGGUCAUCUUCAGUGUGUGGG | 0.442
AUUAUUCCUUAAGAAGUCUGUGUUAUAUUACCACGGAACACCCAAUAAAGCAAAAUGUGGUUGUUUCGAGGUGUGUCUGUAUUGAGACUCCCACAGUGUGUCGGCCUCUC | 0.368
